Results from different studies.
Protocols differ between the studies behind these lines.
CNR2: Cannabinoid receptor 2 (CNR2, Homo sapiens, UniProt P34972)
4'-phosphopantetheinyl transferase PptT: 4'-phosphopantetheinyl transferase PptT (Mycobacterium tuberculosis, UniProt O33336)
OPRK1: Kappa-type opioid receptor (OPRK1, Homo sapiens, UniProt P41145)
HTR1F: 5-hydroxytryptamine receptor 1F (HTR1F, Homo sapiens, UniProt P30939)

With `CCCCCc1cc(O)c2c(c1)OC(C)(C)c1ccc(C)cc1-2` the Ki was 163 nM (CNR2; ligand displacement, radioligand; cell membranes).
The Kd of `CO[C@H]1/C=C/O[C@@]2(C)Oc3c(C)c(O)c4c(O)c(c(/C=N/N5CCN(C6CCCC6)CC5)c(O)c4c3C2=O)NC(=O)/C(C)=C\C=C\[C@H](C)[C@H](O)[C@@H](C)[C@@H](O)[C@@H](C)[C@H](OC(C)=O)[C@@H]1C` is reported as over 125000 nM (dppA (Mycobacterium tuberculosis, UniProt I6X811); binding, SPR).
With `C[C@@]12CC[C@H](O)C[C@H]1CC[C@@H]1[C@@H]2CC[C@@]2(C)C(=O)CC[C@@H]12` the EC50 was 19800 nM (CNR2; cAMP, agonist).
For `COC(=O)[C@H]1[C@@H](OC(=O)c2ccccc2)C[C@@H]2CC[C@H]1N2C`, the Ki was 9040 nM (Sigma non-opioid intracellular receptor 1 (SIGMAR1, Cavia porcellus, UniProt Q60492); ligand displacement, radioligand; cell membranes).
`CC(N)C(=O)c1cccc(Cl)c1` (centres unmarked) has an IC50 of 2780 nM (Sodium-dependent serotonin transporter (Slc6a4, Rattus norvegicus, UniProt P31652); transporter uptake, inhibitor, radiometric).
`O=c1c2cc(Cl)ccc2[nH]c(=S)n1Cc1cc[nH]n1` has an IC50 of 6850 nM (4'-phosphopantetheinyl transferase PptT; enzyme activity, inhibitor, FP).
For `COc1cc(CCNC(C)c2ccccc2O)c(OC)cc1C#N` (centres unmarked), the Ki was 390 nM (5-hydroxytryptamine receptor 2B (HTR2B, Homo sapiens, UniProt P41595); cell-free assay, radioligand).
The Ki of `C/C=C1/CN2CC[C@]34C(=C(C(=O)OC)[C@H]1C[C@H]23)Nc1ccc(I)cc14` is reported as 2.4 nM (OPRK1; ligand displacement, radioligand; cell membranes).
`O=c1c2cc(Br)ccc2[nH]c(=S)n1Cc1cccnc1` gave an IC50 of 670 nM (4'-phosphopantetheinyl transferase PptT; enzyme activity, inhibitor, FP).
The EC50 of `CN1CCC(C(=O)c2cccc(NC(=O)c3c(F)cc(F)cc3F)n2)CC1` is reported as 17.7 nM (HTR1F; G protein activation, agonist, BRET).
The IC50 of `COCCC(c1cccnc1)n1c(=S)[nH]c2ccc(Cl)cc2c1=O` (centres unmarked) is reported as 2600 nM (4'-phosphopantetheinyl transferase PptT; enzyme activity, inhibitor, FP).
With `Oc1ccc2c3c1O[C@H]1c4oc5ccccc5c4C[C@@]4(O)[C@@H](C2)N(CC2CC2)CC[C@]314` the EC50 was 49800 nM (Transient receptor potential cation channel subfamily M member 7 (Trpm7, Mus musculus, UniProt Q923J1); calcium signal, agonist).
The EC50 of `CC[C@@H](CO)NC(=O)[C@@H]1C=C2c3cccc4[nH]cc(c34)C[C@H]2N(C)C1` is reported as 5.21 nM (HTR1F; G protein activation, agonist, BRET).
`CC(Cc1ccccc1)NCCC(c1ccccc1)c1ccccc1` (centres unmarked) gave an IC50 of 3490 nM (Beta-2 adrenergic receptor (ADRB2, Homo sapiens, UniProt P07550); ligand displacement, radioligand).
`CNC(C)C(=O)c1ccccc1` (racemic) has an EC50 of 182 nM (Sodium-dependent noradrenaline transporter (SLC6A2, Homo sapiens, UniProt P23975); calcium signal, agonist, fluorescence).
`O=c1c2cc(Cl)ccc2[nH]c(=S)n1Cc1ccc(-c2nnn[nH]2)nc1` has an IC50 of 140 nM (4'-phosphopantetheinyl transferase PptT; enzyme activity, inhibitor, FP).
For `CCCc1cc(O)c2c(c1)OC(C)(CCC=C(C)C)C=C2` (centres unmarked), the Ki was 1390 nM (CNR2; ligand displacement, radioligand; cell membranes).
`O=c1c2cc(Cl)c(CO)cc2[nH]c(=S)n1Cc1cccnc1` gave an IC50 of 730 nM (4'-phosphopantetheinyl transferase PptT; enzyme activity, inhibitor, FP).
For `CS(=O)(=O)c1ccc(C(=O)N[C@H]2CC[C@@]3(O)[C@H]4Cc5ccc(O)c6c5[C@@]3(CCN4CC3CC3)[C@H]2O6)s1`, the Ki was 5.47 nM (OPRK1; ligand displacement, radioligand; cell membranes).
`O=c1c2cc(Cl)ccc2[nH]c(=S)n1Cc1ccc(-n2cccn2)nc1` gave an IC50 of 160 nM (4'-phosphopantetheinyl transferase PptT; enzyme activity, inhibitor, FP).
`O=C(N[C@H]1CC[C@@]2(O)[C@H]3Cc4ccc(O)c5c4[C@@]2(CCN3CC2CC2)[C@H]1O5)c1ccc(C(F)F)s1` has a Ki of 2.45 nM (OPRK1; ligand displacement, radioligand; cell membranes).
For `NC(=O)c1cncc(Cn2c(=S)[nH]c3ccc(Cl)cc3c2=O)c1`, the IC50 was 400 nM (4'-phosphopantetheinyl transferase PptT; enzyme activity, inhibitor, FP).
`O=C(N[C@H]1CC[C@@]2(O)[C@H]3Cc4ccc(O)c5c4[C@@]2(CCN3CC2CC2)[C@H]1O5)c1ccc(Cl)s1` has a Ki of 1.51 nM (OPRK1; ligand displacement, radioligand; cell membranes).

A few entries again:
For `COC(=O)[C@H]1[C@@H](OC(=O)c2ccccc2)C[C@@H]2CC[C@H]1N2C`, the Ki was 9040 nM (Sigma non-opioid intracellular receptor 1 (SIGMAR1, Cavia porcellus, UniProt Q60492); ligand displacement, radioligand; cell membranes).
The IC50 of `COCCC(c1cccnc1)n1c(=S)[nH]c2ccc(Cl)cc2c1=O` (centres unmarked) is reported as 2600 nM (4'-phosphopantetheinyl transferase PptT; enzyme activity, inhibitor, FP).
The EC50 of `CC[C@@H](CO)NC(=O)[C@@H]1C=C2c3cccc4[nH]cc(c34)C[C@H]2N(C)C1` is reported as 5.21 nM (HTR1F; G protein activation, agonist, BRET).
